Experimental data of several laboratories.
Every numbered part comes from another study and shows a few of its results, in no order. “And” joins repeats or separate records; there may be more than shown.
UniProt P51955, sequence (whole entry, looked up): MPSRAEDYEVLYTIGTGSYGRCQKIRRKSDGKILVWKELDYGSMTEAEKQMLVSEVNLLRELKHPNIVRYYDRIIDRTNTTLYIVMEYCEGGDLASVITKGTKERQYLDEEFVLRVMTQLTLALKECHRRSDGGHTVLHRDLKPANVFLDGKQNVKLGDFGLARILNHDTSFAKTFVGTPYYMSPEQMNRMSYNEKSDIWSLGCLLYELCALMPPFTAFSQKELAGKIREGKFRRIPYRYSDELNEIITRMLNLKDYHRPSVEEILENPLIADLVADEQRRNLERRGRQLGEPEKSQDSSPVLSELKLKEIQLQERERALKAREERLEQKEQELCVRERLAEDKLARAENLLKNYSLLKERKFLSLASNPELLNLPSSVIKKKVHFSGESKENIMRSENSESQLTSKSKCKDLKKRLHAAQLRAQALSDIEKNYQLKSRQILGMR
UniProt P00519, sequence (whole entry, unmodified, looked up): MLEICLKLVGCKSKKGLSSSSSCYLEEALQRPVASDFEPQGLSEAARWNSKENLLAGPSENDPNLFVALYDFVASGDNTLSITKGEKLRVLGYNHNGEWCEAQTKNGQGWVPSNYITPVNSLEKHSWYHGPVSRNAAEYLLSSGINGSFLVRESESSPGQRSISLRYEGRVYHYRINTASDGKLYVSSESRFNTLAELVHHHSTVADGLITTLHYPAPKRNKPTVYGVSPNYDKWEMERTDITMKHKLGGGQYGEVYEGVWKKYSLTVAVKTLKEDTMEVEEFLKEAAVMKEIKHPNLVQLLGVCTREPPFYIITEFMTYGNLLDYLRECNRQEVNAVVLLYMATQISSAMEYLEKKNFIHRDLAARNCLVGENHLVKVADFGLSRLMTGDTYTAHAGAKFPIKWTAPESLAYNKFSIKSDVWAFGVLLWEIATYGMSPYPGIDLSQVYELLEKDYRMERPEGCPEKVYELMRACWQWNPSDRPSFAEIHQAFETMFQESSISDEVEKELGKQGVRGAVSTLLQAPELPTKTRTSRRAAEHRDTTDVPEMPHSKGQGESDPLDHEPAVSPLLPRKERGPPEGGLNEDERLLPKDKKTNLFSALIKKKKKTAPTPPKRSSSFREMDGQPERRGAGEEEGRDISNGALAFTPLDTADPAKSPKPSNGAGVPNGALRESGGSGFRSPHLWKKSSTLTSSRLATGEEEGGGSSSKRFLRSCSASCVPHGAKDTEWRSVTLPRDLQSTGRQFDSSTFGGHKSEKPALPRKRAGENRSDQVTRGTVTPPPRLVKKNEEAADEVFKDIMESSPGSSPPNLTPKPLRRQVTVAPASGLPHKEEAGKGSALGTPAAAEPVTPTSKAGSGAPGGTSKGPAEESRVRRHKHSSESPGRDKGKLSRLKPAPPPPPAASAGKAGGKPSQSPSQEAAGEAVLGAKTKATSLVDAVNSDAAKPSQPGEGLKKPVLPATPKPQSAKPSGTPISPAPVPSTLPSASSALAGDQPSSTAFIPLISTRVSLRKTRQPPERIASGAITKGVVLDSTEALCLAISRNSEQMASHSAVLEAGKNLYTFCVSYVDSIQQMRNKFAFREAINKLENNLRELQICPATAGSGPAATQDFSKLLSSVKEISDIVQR
UniProt Q13976, sequence (whole entry, looked up): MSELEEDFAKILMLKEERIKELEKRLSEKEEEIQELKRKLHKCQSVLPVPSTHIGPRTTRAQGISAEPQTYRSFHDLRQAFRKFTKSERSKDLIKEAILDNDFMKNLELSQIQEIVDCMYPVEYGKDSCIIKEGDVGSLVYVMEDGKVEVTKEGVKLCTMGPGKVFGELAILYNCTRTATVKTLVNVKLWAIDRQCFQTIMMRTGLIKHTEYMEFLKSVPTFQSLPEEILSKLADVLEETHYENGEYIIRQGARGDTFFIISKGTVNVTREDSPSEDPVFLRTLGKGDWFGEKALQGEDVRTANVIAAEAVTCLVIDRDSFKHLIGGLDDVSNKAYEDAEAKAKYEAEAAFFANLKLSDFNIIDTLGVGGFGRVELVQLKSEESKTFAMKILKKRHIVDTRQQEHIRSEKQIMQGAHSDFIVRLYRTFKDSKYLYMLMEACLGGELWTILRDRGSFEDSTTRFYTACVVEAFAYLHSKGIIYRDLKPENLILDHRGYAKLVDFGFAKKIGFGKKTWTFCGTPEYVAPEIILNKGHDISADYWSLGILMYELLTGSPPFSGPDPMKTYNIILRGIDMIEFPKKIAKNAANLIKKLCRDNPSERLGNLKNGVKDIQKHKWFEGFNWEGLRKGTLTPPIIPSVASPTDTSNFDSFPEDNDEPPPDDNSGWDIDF
UniProt Q00535, sequence (whole entry, looked up): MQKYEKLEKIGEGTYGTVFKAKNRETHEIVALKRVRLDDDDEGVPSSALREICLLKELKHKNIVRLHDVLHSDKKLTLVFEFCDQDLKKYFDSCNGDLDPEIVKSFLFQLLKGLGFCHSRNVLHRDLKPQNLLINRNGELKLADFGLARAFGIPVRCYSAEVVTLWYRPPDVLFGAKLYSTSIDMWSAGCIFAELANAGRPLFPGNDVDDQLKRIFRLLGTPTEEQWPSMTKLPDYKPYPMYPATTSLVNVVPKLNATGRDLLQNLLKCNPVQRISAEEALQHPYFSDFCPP

Set 1 — Structure (SMILES): COc1ccc(-c2cnc3c(-c4ccsc4)cnn3c2)cc1; effect on: enzyme activity; mode: inhibitor; concentration: 0.5 µM; reference: control
It gave 104% for remaining activity (Mitogen-activated protein kinase 9 (MAPK9, Homo sapiens, UniProt P45984)).
It gave 90.3% for remaining activity (Serine/threonine-protein kinase OSR1 (OXSR1, Homo sapiens, UniProt O95747)).
Tyrosine-protein kinase Lyn, isoform B (LYN, Homo sapiens, UniProt P07948) — remaining activity: 92.7%.
It gave 98% for remaining activity (TGF-beta receptor type-1 (TGFBR1, Homo sapiens, UniProt P36897)).
It gave 101% for remaining activity (Protein kinase C alpha type (PRKCA, Homo sapiens, UniProt P17252)).
The remaining activity was 89.1% (Serine/threonine-protein kinase Chk2 (CHEK2, Homo sapiens, UniProt O96017)).
G protein-coupled receptor kinase 3 (GRK3, Homo sapiens, UniProt P35626) — remaining activity: 97.8%.
It gave 99.6% for remaining activity (Inhibitor of nuclear factor kappa-B kinase subunit beta (IKBKB, Homo sapiens, UniProt O14920)).
For STE20/SPS1-related proline-alanine-rich protein kinase (STK39, Homo sapiens, UniProt Q9UEW8): remaining activity read 95.1%.
For Serine/threonine-protein kinase Nek2 (NEK2, Homo sapiens, UniProt P51955): remaining activity read 90.2%.
The remaining activity was 92% (Calcium/calmodulin-dependent protein kinase type II subunit delta (CAMK2D, Homo sapiens, UniProt Q13557)).
For Death-associated protein kinase 1 (DAPK1, Homo sapiens, UniProt P53355): remaining activity read 103%.
Serine/threonine-protein kinase 10 (STK10, Homo sapiens, UniProt O94804) — remaining activity: 81.6%.
Serine/threonine-protein kinase STK11 (STK11, Homo sapiens, UniProt Q15831) — remaining activity: 95.9%.
The remaining activity was 73% (Cyclin-dependent kinase 5, with p25 (CDK5, Homo sapiens, UniProt Q00535)).
The remaining activity was 84.1% (TGF-beta receptor type-2 (TGFBR2, Homo sapiens, UniProt P37173)).
It gave 72.9% for remaining activity (Calcium/calmodulin-dependent protein kinase kinase 2 (CAMKK2, Homo sapiens, UniProt Q96RR4)).
Protein kinase C beta type, isoform beta-I (PRKCB, Homo sapiens, UniProt P05771) — remaining activity: 101%.
Mitogen-activated protein kinase kinase kinase 3 (MAP3K3, Homo sapiens, UniProt Q99759) — remaining activity: 99.4%.
The remaining activity was 85.5% (Inhibitor of nuclear factor kappa-B kinase subunit epsilon (IKBKE, Homo sapiens, UniProt Q14164)).
Death-associated protein kinase 2 (DAPK2, Homo sapiens, UniProt Q9UIK4) — remaining activity: 87.4%.
It gave 89.1% for remaining activity (cGMP-dependent protein kinase 1, isoform beta (PRKG1, Homo sapiens, UniProt Q13976)).
cAMP-dependent protein kinase catalytic subunit alpha (PRKACA, Homo sapiens, UniProt P17612) — remaining activity: 96.1%.
For Cyclin-dependent kinase 4, with cyclin D1 (CDK4, Homo sapiens, UniProt P11802): remaining activity read 69.8%.

Set 2 — technique: competition with immobilised ligand; concentration: 1 µM
SMILES: COc1ccc2cc(OCC3(C(=O)O)CN(C(=O)c4ccc(F)cc4)C3)ccc2c1
Mitogen-activated protein kinase kinase kinase 15 (MAP3K15, Homo sapiens, UniProt Q6ZN16); cell-free assay — remaining binding: 94%.
It gave 100% for remaining binding (Cyclin-dependent kinase 13 (CDK13, Homo sapiens, UniProt Q14004); cell-free assay).
It gave 100% for remaining binding (Tyrosine-protein kinase HCK (HCK, Homo sapiens, UniProt P08631); cell-free assay).
The remaining binding was 100% (MAP/microtubule affinity-regulating kinase 4 (MARK4, Homo sapiens, UniProt Q96L34); cell-free assay).
Tyrosine-protein kinase ABL1, non-phosphorylated (ABL1, Homo sapiens, UniProt P00519, F317L); cell-free assay — remaining binding: 100%.
For Ribosomal protein S6 kinase alpha-4, N-terminal kinase domain (RPS6KA4, Homo sapiens, UniProt O75676); cell-free assay: remaining binding read 100%.
It gave 100% for remaining binding (Myosin light chain kinase family member 4 (MYLK4, Homo sapiens, UniProt Q86YV6); cell-free assay).
It gave 91% for remaining binding (Receptor-type tyrosine-protein kinase FLT3 (FLT3, Homo sapiens, UniProt P36888, D835V/ITD); cell-free assay).
Bone morphogenetic protein receptor type-1B (BMPR1B, Homo sapiens, UniProt O00238); cell-free assay — remaining binding: 95%.
It gave 100% for remaining binding (Serine/threonine-protein kinase Nek3 (NEK3, Homo sapiens, UniProt P51956); cell-free assay).
The remaining binding was 100% (Casein kinase I isoform delta (CSNK1D, Homo sapiens, UniProt P48730); cell-free assay).
It gave 50% for remaining binding (Phosphatidylinositol 4,5-bisphosphate 3-kinase catalytic subunit alpha isoform (PIK3CA, Homo sapiens, UniProt P42336, E542K); cell-free assay).
For Proto-oncogene tyrosine-protein kinase Src (SRC, Homo sapiens, UniProt P12931); cell-free assay: remaining binding read 100%.
The remaining binding was 100% (Fibroblast growth factor receptor 1 (FGFR1, Homo sapiens, UniProt P11362); cell-free assay).
For LIM domain kinase 2 (LIMK2, Homo sapiens, UniProt P53671); cell-free assay: remaining binding read 90%.
Receptor-type tyrosine-protein kinase FLT3 (FLT3, Homo sapiens, UniProt P36888, D835H); cell-free assay — remaining binding: 71%.
The remaining binding was 86% (Maternal embryonic leucine zipper kinase (MELK, Homo sapiens, UniProt Q14680); cell-free assay).
For Ephrin type-A receptor 7 (EPHA7, Homo sapiens, UniProt Q15375); cell-free assay: remaining binding read 100%.
The remaining binding was 100% (Casein kinase I isoform alpha-like (CSNK1A1L, Homo sapiens, UniProt Q8N752); cell-free assay).
The remaining binding was 100% (Ephrin type-A receptor 8 (EPHA8, Homo sapiens, UniProt P29322); cell-free assay).
For Bone morphogenetic protein receptor type-2 (BMPR2, Homo sapiens, UniProt Q13873); cell-free assay: remaining binding read 87%.
Non-receptor tyrosine-protein kinase TYK2, JH1 (TYK2, Homo sapiens, UniProt P29597); cell-free assay — remaining binding: 89%.
Activin receptor type-1B (ACVR1B, Homo sapiens, UniProt P36896); cell-free assay — remaining binding: 78%.
It gave 100% for remaining binding (Tyrosine-protein kinase TXK (TXK, Homo sapiens, UniProt P42681); binding).
The remaining binding was 100% (Hepatocyte growth factor receptor (MET, Homo sapiens, UniProt P08581, M1250T); cell-free assay).

Set 3 — effect on: enzyme activity; mode: inhibitor; concentration: 77 µM; reference: untreated
Target: DNA polymerase theta, ATPase domain (POLQ, Homo sapiens, UniProt O75417)
UniProt O75417, sequence (whole entry, unmodified, looked up): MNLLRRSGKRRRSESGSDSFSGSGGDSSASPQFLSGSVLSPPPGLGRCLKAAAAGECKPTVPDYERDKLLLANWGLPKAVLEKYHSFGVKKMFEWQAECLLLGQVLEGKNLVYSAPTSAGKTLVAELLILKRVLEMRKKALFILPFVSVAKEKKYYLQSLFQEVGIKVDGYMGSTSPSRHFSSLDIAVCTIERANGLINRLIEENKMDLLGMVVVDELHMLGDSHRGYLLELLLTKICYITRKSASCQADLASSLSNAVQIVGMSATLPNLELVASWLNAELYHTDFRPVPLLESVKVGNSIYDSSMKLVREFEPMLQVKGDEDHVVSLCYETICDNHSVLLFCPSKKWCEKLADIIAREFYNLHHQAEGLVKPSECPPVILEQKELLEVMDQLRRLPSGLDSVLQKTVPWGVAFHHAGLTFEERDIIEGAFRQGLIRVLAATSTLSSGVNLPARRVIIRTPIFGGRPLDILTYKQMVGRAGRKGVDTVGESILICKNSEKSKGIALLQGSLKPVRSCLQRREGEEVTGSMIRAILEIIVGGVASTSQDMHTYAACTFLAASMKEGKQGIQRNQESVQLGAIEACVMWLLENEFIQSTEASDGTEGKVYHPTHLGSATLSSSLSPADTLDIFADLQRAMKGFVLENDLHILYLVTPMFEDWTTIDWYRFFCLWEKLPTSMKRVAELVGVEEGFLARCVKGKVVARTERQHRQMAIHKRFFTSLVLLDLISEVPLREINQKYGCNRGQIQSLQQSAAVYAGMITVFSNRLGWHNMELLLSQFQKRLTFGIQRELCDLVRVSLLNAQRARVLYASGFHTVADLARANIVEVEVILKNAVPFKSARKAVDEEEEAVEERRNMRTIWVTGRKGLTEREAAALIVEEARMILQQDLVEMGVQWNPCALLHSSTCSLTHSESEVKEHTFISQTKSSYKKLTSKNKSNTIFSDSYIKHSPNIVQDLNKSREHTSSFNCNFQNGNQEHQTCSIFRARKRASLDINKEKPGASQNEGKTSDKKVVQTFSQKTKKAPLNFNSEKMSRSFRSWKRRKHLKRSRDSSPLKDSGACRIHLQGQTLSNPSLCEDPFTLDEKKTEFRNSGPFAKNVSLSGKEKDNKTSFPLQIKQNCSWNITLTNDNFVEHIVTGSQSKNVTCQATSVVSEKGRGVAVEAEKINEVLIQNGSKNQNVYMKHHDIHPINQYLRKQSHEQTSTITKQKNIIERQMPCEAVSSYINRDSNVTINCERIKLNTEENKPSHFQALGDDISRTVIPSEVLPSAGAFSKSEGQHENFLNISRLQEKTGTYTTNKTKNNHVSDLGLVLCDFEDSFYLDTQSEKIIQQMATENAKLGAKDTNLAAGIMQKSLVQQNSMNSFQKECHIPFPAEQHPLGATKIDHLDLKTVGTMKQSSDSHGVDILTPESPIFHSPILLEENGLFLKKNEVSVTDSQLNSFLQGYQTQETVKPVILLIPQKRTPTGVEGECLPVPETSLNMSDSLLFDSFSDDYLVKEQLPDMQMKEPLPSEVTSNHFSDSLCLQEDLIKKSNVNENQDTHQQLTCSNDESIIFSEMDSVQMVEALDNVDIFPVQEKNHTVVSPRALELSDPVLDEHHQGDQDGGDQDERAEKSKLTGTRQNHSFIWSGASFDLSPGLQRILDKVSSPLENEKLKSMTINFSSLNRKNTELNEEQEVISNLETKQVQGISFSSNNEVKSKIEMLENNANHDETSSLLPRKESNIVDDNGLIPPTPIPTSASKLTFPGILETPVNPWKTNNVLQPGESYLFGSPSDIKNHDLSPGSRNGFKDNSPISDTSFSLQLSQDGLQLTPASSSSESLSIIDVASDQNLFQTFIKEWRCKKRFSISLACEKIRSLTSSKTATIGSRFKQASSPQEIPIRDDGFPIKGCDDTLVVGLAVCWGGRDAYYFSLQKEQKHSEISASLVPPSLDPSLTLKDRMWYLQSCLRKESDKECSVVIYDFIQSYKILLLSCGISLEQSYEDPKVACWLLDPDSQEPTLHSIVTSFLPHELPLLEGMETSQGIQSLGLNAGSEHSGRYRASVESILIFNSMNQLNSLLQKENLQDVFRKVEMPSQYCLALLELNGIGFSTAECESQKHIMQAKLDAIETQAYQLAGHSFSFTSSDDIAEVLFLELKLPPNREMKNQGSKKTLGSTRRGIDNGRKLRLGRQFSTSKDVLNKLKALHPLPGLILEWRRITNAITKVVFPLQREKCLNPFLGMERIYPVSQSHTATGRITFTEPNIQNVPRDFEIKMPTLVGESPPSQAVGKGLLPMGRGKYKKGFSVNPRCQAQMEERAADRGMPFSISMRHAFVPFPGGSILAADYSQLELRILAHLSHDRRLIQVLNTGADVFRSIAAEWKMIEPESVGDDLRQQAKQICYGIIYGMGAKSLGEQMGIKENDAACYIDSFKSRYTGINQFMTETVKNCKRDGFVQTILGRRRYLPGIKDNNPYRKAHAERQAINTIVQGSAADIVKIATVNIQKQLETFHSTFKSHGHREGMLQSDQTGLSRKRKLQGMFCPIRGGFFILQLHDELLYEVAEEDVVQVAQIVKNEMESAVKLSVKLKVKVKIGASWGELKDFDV
CCc1cccc2c3c([nH]c12)C(CC)(CC(=O)O)OCC3 (stereo not drawn) has a remaining activity of 88.1% and 92.7%.
Cn1c(=O)c2c(ncn2CC2OCCO2)n(C)c1=O has a remaining activity of 96.2%.
CC(C)(C)C(=O)OCOC(=O)[C@@H]1N2C(=O)[C@@H](NC(=O)[C@H](N)c3ccccc3)[C@H]2SC1(C)C gave a remaining activity of 102%.
Cc1c(CN2CCN(C(=O)[C@H](C)O)CC2)sc2c(N3CCOCC3)nc(-c3cnc(N)nc3)nc12 has a remaining activity of 108%.
CN1C[C@@H]2c3ccccc3Oc3ccc(Cl)cc3[C@H]2C1 (racemic) has a remaining activity of 101%.
CC(=O)c1ccc2c(c1)N(CCCN1CCC(CCO)CC1)c1ccccc1S2 has a remaining activity of 103%.
With COc1nc(N)nc2c1ncn2[C@@H]1O[C@H](CO)[C@@H](O)[C@@H]1O the remaining activity was 92.5%.
The remaining activity of O=S(=O)(O)c1cc(O)ccc1O is reported as 103% and 98.7%.
CC1=C(/C=C/C(C)=C/C=C/C(C)=C/C(=O)O)C(C)(C)CCC1 gave a remaining activity of 92% and 108%.
CN(C)C(=O)Nc1cccc(-c2ccc(N(C)C)cc2)c1 gave a remaining activity of 79.3%.
For CCOC(=O)[C@H](CCc1ccccc1)N[C@H]1CS[C@H](c2cccs2)CN(CC(=O)O)C1=O, the remaining activity was 98.3%.
With CC[N+](CC)(CC(=O)Nc1c(C)cccc1C)Cc1ccccc1 the remaining activity was 75.3%.
CN(CCOc1ccc(NS(C)(=O)=O)cc1)CCc1ccc(NS(C)(=O)=O)cc1 gave a remaining activity of 77.7% and 99.6%.

Set 4 — effect on: binding; concentration: 1 µM
Structure (SMILES): Cc1ccc(NC(=O)c2ccnc(C(F)(F)F)c2)cc1-c1cc(OCCO)nc(N2CCOCC2)c1
It gave 89% for remaining binding (Vascular endothelial growth factor receptor 1 (FLT1, Homo sapiens, UniProt P17948); competition with immobilised ligand).
For Angiopoietin-1 receptor (TEK, Homo sapiens, UniProt Q02763); competition with immobilised ligand: remaining binding read 86%.
Serine/threonine-protein kinase Nek2 (NEK2, Homo sapiens, UniProt P51955); competition with immobilised ligand — remaining binding: 97%.
For Hormonally up-regulated neu tumor-associated kinase (HUNK, Homo sapiens, UniProt P57058): remaining binding read 100%.
For Epidermal growth factor receptor (EGFR, Homo sapiens, UniProt P00533, del752-759): remaining binding read 88%.
Cyclin-dependent kinase-like 1 (CDKL1, Homo sapiens, UniProt Q00532) — remaining binding: 100%.
For 5'-AMP-activated protein kinase catalytic subunit alpha-2 (PRKAA2, Homo sapiens, UniProt P54646): remaining binding read 100%.
The remaining binding was 100% (Serine/threonine-protein kinase 17B (STK17B, Homo sapiens, UniProt O94768)).
For Atypical kinase COQ8B, mitochondrial (COQ8B, Homo sapiens, UniProt Q96D53): remaining binding read 100%.
Serine/threonine-protein kinase Sgk3 (SGK3, Homo sapiens, UniProt Q96BR1) — remaining binding: 100%.
It gave 100% for remaining binding (Mast/stem cell growth factor receptor Kit (KIT, Homo sapiens, UniProt P10721, T670I/V559D)).
For Tyrosine-protein kinase receptor Tie-1 (TIE1, Homo sapiens, UniProt P35590); competition with immobilised ligand: remaining binding read 33%.
Ephrin type-A receptor 6 (EPHA6, Homo sapiens, UniProt Q9UF33); competition with immobilised ligand — remaining binding: 91%.

For quick reference, copied from above (set 2):
Tyrosine-protein kinase ABL1, non-phosphorylated (ABL1, Homo sapiens, UniProt P00519, F317L); cell-free assay — remaining binding: 100%.
For Ribosomal protein S6 kinase alpha-4, N-terminal kinase domain (RPS6KA4, Homo sapiens, UniProt O75676); cell-free assay: remaining binding read 100%.
It gave 100% for remaining binding (Myosin light chain kinase family member 4 (MYLK4, Homo sapiens, UniProt Q86YV6); cell-free assay).
It gave 91% for remaining binding (Receptor-type tyrosine-protein kinase FLT3 (FLT3, Homo sapiens, UniProt P36888, D835V/ITD); cell-free assay).
Bone morphogenetic protein receptor type-1B (BMPR1B, Homo sapiens, UniProt O00238); cell-free assay — remaining binding: 95%.
It gave 100% for remaining binding (Serine/threonine-protein kinase Nek3 (NEK3, Homo sapiens, UniProt P51956); cell-free assay).
The remaining binding was 100% (Casein kinase I isoform delta (CSNK1D, Homo sapiens, UniProt P48730); cell-free assay).
It gave 50% for remaining binding (Phosphatidylinositol 4,5-bisphosphate 3-kinase catalytic subunit alpha isoform (PIK3CA, Homo sapiens, UniProt P42336, E542K); cell-free assay).
For Proto-oncogene tyrosine-protein kinase Src (SRC, Homo sapiens, UniProt P12931); cell-free assay: remaining binding read 100%.
The remaining binding was 100% (Fibroblast growth factor receptor 1 (FGFR1, Homo sapiens, UniProt P11362); cell-free assay).
For LIM domain kinase 2 (LIMK2, Homo sapiens, UniProt P53671); cell-free assay: remaining binding read 90%.
